Published values collected from several papers.
Numbered parts are unrelated; each lists some results of a single study. Substitutions count along the parent as printed.

Set 1 — technique: DHFR PCA, deep sequencing; medium: yeast; added: (+)-ABA 0.0091 µM; baseline: wild-type fitted maximum; reading: higher = stronger binding
Target: ABI1, truncated, D143A, DHFR fusion (Arabidopsis thaliana)
Setting: methotrexate growth selection, single substitutions
Parent: PYL1, truncated, DHFR fusion (Arabidopsis thaliana); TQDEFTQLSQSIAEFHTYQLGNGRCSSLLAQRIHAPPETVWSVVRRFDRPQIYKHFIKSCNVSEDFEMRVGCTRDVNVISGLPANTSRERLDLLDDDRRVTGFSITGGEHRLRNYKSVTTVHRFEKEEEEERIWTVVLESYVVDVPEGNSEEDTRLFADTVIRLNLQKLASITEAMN; partner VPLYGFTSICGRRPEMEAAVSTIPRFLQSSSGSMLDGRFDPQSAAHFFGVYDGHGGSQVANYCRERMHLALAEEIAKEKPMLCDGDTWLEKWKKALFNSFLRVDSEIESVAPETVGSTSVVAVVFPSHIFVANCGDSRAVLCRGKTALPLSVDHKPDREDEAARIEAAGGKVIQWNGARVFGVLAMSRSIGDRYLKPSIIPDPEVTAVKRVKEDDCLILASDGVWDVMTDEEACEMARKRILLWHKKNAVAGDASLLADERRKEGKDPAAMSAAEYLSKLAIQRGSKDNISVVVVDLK
Substitution | relative binding score [%]
Q51D | 30.4
D97M | 2.9
A158G | -2.21
N22M | 17.9
R88Y | 14
L29V | 31.5
I57Y | -3.84
V136F | 8.56
T106H | 1.11
T173E | 0.313
H110R | 20.9
E152I | 4.67
D153A | -3.14
Y141F | -0.138
S27R | 0.142
L164F | 7.19
D96H | 0.984
R98F | -3.26
Q167V | -0.337
R163M | 23.8

Set 2 — target: UBE2S UBC core domain (UniProt Q16763); technique: yeast two-hybrid; medium: yeast; setting: mostly zero background; baseline: not given; reading: higher = stronger interaction
B1: MAP3K1 RING domain (UniProt Q13233); chain NSIKDEEEQMCPICLLGMLDEESLTVCEDGCRNKLHHHCMSIWAEECRRNREPLICPLCRSKWRSHDFYS
B2: RNF19A RING domain (UniProt Q9NV58); chain ISKQIGDFIECPLCLLRHSKDRFPDIMTCHHRSCVDCLRQYLRIEISESRVNISCPECTERFNPHDIR
B3: UBOX5 RING domain (UniProt O94941); chain EQPGSILGPECASCKRVFSPYFKKEPVYQLPCGHLLCRPCLGEKQRSLPMTCTACQRPVASQDVLR
B4: DTX2 RING domain (UniProt Q86UW9); chain EELKVPPDEDCIICMEKLSTASGYSDVTDSKAIGSLAVGHLTKCSHAFHLLCLLAMYCNGNKDGSLQCPSCKTIYGEKTGTQ
Sequence | lacZ reporter activity
GSDDEEIPFKCFICRQSFQNPVVTKCRHYFCESCALQHFRTTPRCYVCDQQTNGVFNPA (RNF113A RING domain (UniProt O15541)) | 0
KLRKLKEAMLCMVCCEEEINSTFCPCGHTVCCESCAAQLQSCPVCRSRVEHVQHVY (MYLIP RING domain (UniProt Q8WY64)) | 0
YQNEVDDDLVCHICLQPLLQPLDTPCGHTFCYKCLRNFLQEKDFCPLDRKRLHFKLCKK (LNX2 RING domain (UniProt Q8N448)) | 0
PEDRESLKSACVVCLSSFKSCVFLECGHVCSCTECYRALPEPKKCPICRQAITRVIPLY (MUL1 RING domain (UniProt Q969V5)) | 0
AVPSGLEENLCKICMDSPIDCVLLECGHMVTCTKCGKRMNECPICRQYVIRAVHVF (RFFL RING domain (UniProt Q8WZ73)) | 0
AMYLQENGIDCPKCKFSYALARGGCMHFHCTQCRHQFCSGCYNAFYAKNKC (RNF31 RING domain (UniProt Q96EP0)) | 0
B1 (MAP3K1 RING domain) | 0
B2 (RNF19A RING domain) | 0
B3 (UBOX5 RING domain) | 0
KETIKKTTKPCPRCHVPVEKNGGCMHMKCPQPQCRLEWCWNCGCEWNRVCMG (PRKN RING domain (UniProt O60260)) | 0
B4 (DTX2 RING domain) | 0
GSRLQEINDVCAICYHEFTTSARITPCNHYFHALCLRKWLYIQDTCPMCHQKVYIEDDIK (RNF139 RING domain (UniProt Q8WU17)) | 0

Set 3 — technique: universal PBM; molecule type: double-stranded DNA, one strand shown; medium: in vitro; tested at: not given; reading: higher = stronger binding
Target: Sal-like protein 4, full length isoform B (SALL4, Homo sapiens, UniProt Q9UJQ4-2, residues 1-616)
Setting: 8-mer, flanks averaged, mean of replicates
Construct (chain): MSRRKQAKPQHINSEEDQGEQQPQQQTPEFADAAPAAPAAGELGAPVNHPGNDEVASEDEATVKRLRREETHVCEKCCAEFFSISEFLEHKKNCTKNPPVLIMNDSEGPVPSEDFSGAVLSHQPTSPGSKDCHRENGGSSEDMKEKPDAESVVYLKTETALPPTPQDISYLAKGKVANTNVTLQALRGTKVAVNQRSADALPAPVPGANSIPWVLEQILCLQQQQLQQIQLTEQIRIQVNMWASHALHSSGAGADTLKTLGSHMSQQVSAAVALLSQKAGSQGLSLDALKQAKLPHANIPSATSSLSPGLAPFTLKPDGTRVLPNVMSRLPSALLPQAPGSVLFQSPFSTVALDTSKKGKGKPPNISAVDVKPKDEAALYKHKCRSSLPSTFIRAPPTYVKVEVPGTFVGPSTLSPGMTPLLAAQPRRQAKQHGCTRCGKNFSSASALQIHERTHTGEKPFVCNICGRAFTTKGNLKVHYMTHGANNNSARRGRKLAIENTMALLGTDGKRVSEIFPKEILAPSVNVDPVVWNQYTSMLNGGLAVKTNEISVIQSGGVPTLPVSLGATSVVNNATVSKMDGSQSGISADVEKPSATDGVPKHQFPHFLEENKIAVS
Oligonucleotide | E-score
CTATTAGC | 0.188
AGTCCATC | 0.0139
CTAAAGGA | -0.011
CGGTCGGA | -0.299
AGTCAGAC | -0.0917
GGCAGTAA | -0.0977
ACCGATAC | 0.0877
ACGACGCG | -0.0354
AAACGCTT | 0.0353
ACATACTC | 0.21
CACGTCGC | -0.155
ATTACCGG | -0.0232
AGTCTACG | -0.0881
GGAGCACC | -0.321
GGGAGCAC | -0.217
AATACGGA | 0.201
CAGCTCTC | -0.204
AGTTGGGC | -0.119
CAACACCA | -0.0136
GTTTACTA | 0.193
AACGATGT | 0.133
CGGACTGA | -0.272
CAGGGCTA | -0.193
CAAACTCG | -0.244
CTTGATTC | 0.105

Set 4 — technique: protein binding microarray; molecule type: double-stranded DNA, one strand shown; medium: in vitro; tested at: not given; baseline: not given; reading: higher = stronger binding
Target: Histone acetyltransferase KAT6A, both winged helices, GST fusion (KAT6A, Homo sapiens, UniProt Q92794, residues 1-181)
Setting: 8-mer, flanks averaged, mean of 2 arrays, mostly near background
Residues (chain): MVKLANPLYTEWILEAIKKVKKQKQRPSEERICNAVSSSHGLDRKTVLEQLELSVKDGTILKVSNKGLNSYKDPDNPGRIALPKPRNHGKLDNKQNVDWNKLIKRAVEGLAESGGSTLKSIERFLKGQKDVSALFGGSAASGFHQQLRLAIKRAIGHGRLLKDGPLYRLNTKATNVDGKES
Oligonucleotide | E-score
ATCGGATA | 0.0329
TGCGAGCA | -0.0639
ATTGACTG | -0.166
AATTCCTC | -0.0796
GATATACA | 0.039
CAGAATAA | -0.0811
AACCGGGC | 0.134
CCTTAATA | -0.238
GACGCTCC | 0.183
CCGCGGTC | 0.355
AAGTGTTC | -0.0415
ACAAATTC | -0.0899
AAGATACG | 0.104
AATGGAAT | -0.136
CAGGGTGC | -0.083
CCGGATCG | 0.0418

Set 5 — target: CCND1, cyclin fold, Cln2 fusion (human); technique: yeast growth competition, sequencing; medium: yeast; setting: strong parent motif; baseline: not given; reading: higher = stronger binding
Parent: CDKN1A docking peptide (human); SKACRRLFGPVDS
Substitution | normalised enrichment score
F8N | 0.0688
K2D | 1.78
P10C | 1.41
C4F | 0.328
V11R | 1.96
G9C | 2.76
F8S | 0.419
P10S | 2.34
P10R | 1.29
L7F | 0.0581
L7M | 0.294
G9S | 3.33
C4W | 0.883
D12S | 1.76
G9Y | 4.52
R5H | 0.172
K2W | 0.87
P10Q | 1.48
A3N | -0.243
D12T | 1.89
V11K | 2.18
F8H | 0.0364
A3P | 0.959
S13A | 2.77

Repeated from above (set 5):
Substitution | normalised enrichment score
F8S | 0.419
P10S | 2.34
P10R | 1.29
L7F | 0.0581
L7M | 0.294
G9S | 3.33
C4W | 0.883
D12S | 1.76
G9Y | 4.52
R5H | 0.172
K2W | 0.87
P10Q | 1.48
A3N | -0.243
D12T | 1.89
V11K | 2.18
